Experimental data collected from several papers.
Compare with care: the assays were run in different laboratories.
Cell line: DU-145

CC(=O)OC[C@H]1O[C@@H](Sc2sc(C(=O)c3ccc(C)cc3)c(N)c2-c2nc3ccccc3s2)[C@H](OC(C)=O)[C@@H](OC(C)=O)[C@@H]1OC(C)=O — growth (SRB; 10 µM, 48 h; baseline: untreated): 42.1%
COc1ccc(C2=Nn3c(NN=C4C(=O)N(Cc5ccccc5)c5ccc(Cl)cc54)nnc3SC2)cc1 — inhibition (cell growth or viability, SRB; 10 µM): 19%
Cc1ccc(C(C)C)cc1.O=C(N=P(c1ccccc1)(c1ccccc1)c1ccccc1)c1ccccn1.[Cl-].[Cl-].[Ru+2] — selectivity ratio (MTT; baseline: IC50 RPTC over IC50 DU-145): 9 fold
COc1cc(CNC(=O)C[C@H](C)CCC=C(C)C)ccc1OCc1cn(-c2cccc([N+](=O)[O-])c2)nn1 — growth percent (SRB; 10 µM, 48 h): 84.5%
CC/C=C\C/C=C\C/C=C\C/C=C\C/C=C\C/C=C\CCC(=O)Nc1ccn(C2OC(CO)C(O)C2(F)F)c(=O)n1 (stereo not shown) — GI50 (cell growth or viability, SRB): 39.6 nM
CC(=O)OC[C@H]1O[C@@H](Sc2sc(C(=O)c3ccc(Br)cc3)c(N)c2-c2nc3ccccc3s2)[C@H](OC(C)=O)[C@@H](OC(C)=O)[C@@H]1OC(C)=O — growth (SRB; 10 µM, 48 h; baseline: untreated): 106%
CC(=O)c1cccc(NC2C(N)C(NC(=O)N(C)C)(C(C)O)C(O)C2(O)COC(=O)c2c(C)cccc2O)c1 (stereo not shown) — GI50 (cell growth or viability, SRB): 150 nM
COc1cc(CNC(=O)C[C@H](C)CCC=C(C)C)ccc1OCc1cn(-c2ccccc2)nn1 — growth percent (SRB; 10 µM, 48 h): 92.1%
C[N+]1(CC(=O)OC2CCCCCCCCCCC2)CCCCC1 — ED50 (cell viability, CellTiter Blue; 96 h): 6200 nM
COc1cc(CNC(=O)C[C@H](C)CCC=C(C)C)ccc1O — growth percent (SRB; 10 µM, 48 h): 103%
CC(Cc1ccc(Cl)cc1)=C(c1ccc(Cl)cc1)c1ccc(OCCN(C)C)cc1 — GI50 (cell growth or viability): 4740 nM
COc1cc(CNC(=O)C[C@H](C)CCC=C(C)C)ccc1OCc1cn(-c2ccc(F)cc2)nn1 — growth percent (SRB; 10 µM, 48 h): 93.1%
CC1=CCC23OC2(C)CCC2C(CN(C)C)C(=O)OC2C13.Cl (stereo not shown) — inhibition (cell growth or viability, SRB; 8.3 µM): 57.3%

Repeated from above:
Cc1ccc(C(C)C)cc1.O=C(N=P(c1ccccc1)(c1ccccc1)c1ccccc1)c1ccccn1.[Cl-].[Cl-].[Ru+2] — selectivity ratio (MTT; baseline: IC50 RPTC over IC50 DU-145): 9 fold
COc1cc(CNC(=O)C[C@H](C)CCC=C(C)C)ccc1OCc1cn(-c2cccc([N+](=O)[O-])c2)nn1 — growth percent (SRB; 10 µM, 48 h): 84.5%
